{"data": "Measured values collected from several papers", "note": "Protocols differ between the studies behind these lines. ± gives the spread as reported."}
{"SMILES": "CC[C@H](C)[C@H](NC(=O)[C@H](CO)NC(=O)[C@H](Cc1ccc(O)cc1)NC(=O)[C@H](CC(=O)O)NC(=O)[C@H](CO)NC(=O)[C@@H](NC(=O)[C@H](Cc1ccccc1)NC(=O)[C@@H](NC(=O)CNC(=O)[C@H](CCC(=O)O)NC(=O)[C@@H](C)NC(=O)[C@@H](N)Cc1ccc(O)cc1)[C@@H](C)O)[C@@H](C)CC)C(=O)N[C@@H](C)C(=O)N[C@@H](CCSC)C(=O)N[C@@H](CC(=O)O)C(=O)N[C@@H](CCCCN)C(=O)N[C@H](C(=O)N[C@@H](Cc1c[nH]cn1)C(=O)N[C@@H](CCC(N)=O)C(=O)N[C@@H](CCC(N)=O)C(=O)N[C@@H](CC(=O)O)C(=O)N[C@@H](Cc1ccccc1)C(=O)N[C@H](C(=O)N[C@@H](CC(N)=O)C(=O)N[C@@H](Cc1c[nH]c2ccccc12)C(=O)N[C@@H](CC(C)C)C(=O)N[C@@H](CC(C)C)C(=O)N[C@@H](C)C(=O)N[C@@H](CCC(N)=O)C(=O)N[C@@H](CCCCN)C(=O)N1CCC[C@H]1C(=O)N[C@@H](CO)C(=O)N[C@@H](CO)C(=O)NCC(=O)N[C@@H](C)C(=O)N1CCC[C@H]1C(=O)N1CCC[C@H]1C(=O)N1CCC[C@H]1C(=O)N[C@@H](CO)C(N)=O)C(C)C)[C@@H](C)CC", "system": "HF-STZ diabetic mouse, plasma", "setting": "continuous infusion, 100 nmol/kg/day, 4 weeks", "measurement": "IL-6", "result": "25.6 ± 7.6 pg/mL"}
{"SMILES": "CCCCCCCCCCCCCCCC(=O)N[C@@H](CCC(=O)NCCOCCOCCC(=O)NCCOCCOCCC(=O)NCCCC[C@H](NC(=O)[C@H](CC(=O)O)NC(=O)[C@H](CC(C)C)NC(=O)[C@H](Cc1ccc(O)cc1)NC(=O)[C@H](CCCCN)NC(=O)[C@H](CO)NC(=O)[C@H](Cc1ccc(O)cc1)NC(=O)[C@H](CC(=O)O)NC(=O)[C@H](CO)NC(=O)[C@@H](NC(=O)[C@H](Cc1ccccc1)NC(=O)[C@@H](NC(=O)CNC(=O)[C@H](CCC(N)=O)NC(=O)[C@@H](CO)NC(=O)[C@@H](N)Cc1c[nH]cn1)[C@@H](C)O)[C@@H](C)O)C(=O)N[C@@H](CCCNC(=N)N)C(=O)N[C@@H](CCCNC(=N)N)C(=O)N[C@@H](C)C(=O)N[C@@H](CCC(N)=O)C(=O)N[C@@H](CC(=O)O)C(=O)N[C@@H](Cc1ccccc1)C(=O)N[C@H](C(=O)N[C@@H](CCC(N)=O)C(=O)N[C@@H](Cc1c[nH]c2ccccc12)C(=O)N[C@@H](CC(C)C)C(=O)N[C@@H](CC(C)C)C(=O)N[C@@H](CC(N)=O)C(=O)N[C@H](C(=O)NCC(=O)NCC(=O)N1CCC[C@H]1C(=O)N[C@@H](CO)C(=O)N[C@@H](CO)C(=O)NCC(=O)N[C@@H](C)C(=O)N1CCC[C@H]1C(=O)N1CCC[C@H]1C(=O)N1CCC[C@H]1C(=O)N[C@@H](CO)C(N)=O)[C@@H](C)O)C(C)C)C(=O)O", "system": "rhesus monkey, female", "setting": "subcutaneous, 300 µg/kg once daily, 28 days", "measurement": "total bilirubin", "result": "4.7 ± 1.7 µmol/L"}
{"SMILES": "Cc1oc2nc1C(=O)N[C@](C)(C(=O)NCCc1ccc(N3CCCCC3)cc1)c1nc(c(C)o1)C(=O)N[C@](C)(C(=O)NCCc1ccc(N3CCCCC3)cc1)c1nc(c(C)o1)C(=O)N[C@]2(C)C(=O)NCCc1ccc(N2CCCCC2)cc1", "target or system": "SARS-CoV-2", "system": "Vero E6, NRC-03-nhCoV", "scale": "relative to: CC50 over IC50", "measurement": "selectivity index", "result": 10.9}
{"SMILES": "CC[C@H](C)[C@H](NC(=O)[C@H](CC(C)C)NC(=O)[C@H](Cc1c[nH]c2ccccc12)NC(=O)[C@H](CCC(N)=O)NC(=O)[C@@H](NC(=O)[C@H](Cc1ccccc1)NC(=O)[C@H](C)NC(=O)[C@H](CCCCNC(=O)COCCOCCNC(=O)COCCOCCNC(=O)CC[C@H](NC(=O)CCCCCCCCCCCCCCCCCCC(=O)O)C(=O)O)NC(=O)[C@H](CCC(N)=O)NC(=O)[C@H](C)NC(=O)[C@@H](NC(=O)[C@H](CCCCN)NC(=O)[C@H](CC(=O)O)NC(=O)[C@H](CC(C)C)NC(=O)C(C)(C)NC(=O)[C@@H](NC(=O)[C@H](CO)NC(=O)[C@H](Cc1ccc(O)cc1)NC(=O)[C@H](CC(=O)O)NC(=O)[C@H](CO)NC(=O)[C@@H](NC(=O)[C@H](Cc1ccccc1)NC(=O)[C@@H](NC(=O)CNC(=O)[C@H](CCC(=O)O)NC(=O)C(C)(C)NC(=O)[C@@H](N)Cc1ccc(O)cc1)[C@@H](C)O)[C@@H](C)O)[C@@H](C)CC)[C@@H](C)CC)C(C)C)C(=O)N[C@@H](C)C(=O)NCC(=O)NCC(=O)N1CCC[C@H]1C(=O)N[C@@H](CO)C(=O)N[C@@H](CO)C(=O)NCC(=O)N[C@@H](C)C(=O)N1CCC[C@H]1C(=O)N1CCC[C@H]1C(=O)N1CCC[C@H]1C(=O)N[C@@H](CO)C(N)=O", "system": "DIO male Wistar rats, serum", "setting": "dose not given, 10 weeks, fasted", "measurement": "AST", "result": "96 ± 9 U/L"}
{"SMILES": "CC[C@H](C)[C@H](NC(=O)[C@H](CCCN)NC(=O)[C@H](CC(=O)O)NC(=O)[C@H](CC(C)C)NC(=O)C(C)(CC(C)C)NC(=O)[C@@H](NC(=O)[C@H](CO)NC(=O)[C@H](Cc1ccc(O)cc1)NC(=O)[C@H](CC(=O)O)NC(=O)[C@H](CO)NC(=O)[C@@H](NC(=O)[C@H](Cc1ccccc1)NC(=O)[C@@H](NC(=O)CNC(=O)[C@H](CCC(=O)O)NC(=O)C(C)(C)NC(=O)[C@@H](N)Cc1ccc(O)cc1)[C@@H](C)O)[C@@H](C)CC)[C@@H](C)CC)C(=O)N[C@@H](Cc1c[nH]cn1)C(=O)N[C@@H](CCC(N)=O)C(=O)NC(C)(C)C(=O)N[C@@H](CC(=O)O)C(=O)N[C@@H](Cc1ccccc1)C(=O)N[C@H](C(=O)N[C@@H](CCC(=O)O)C(=O)N[C@@H](Cc1ccc(O)cc1)C(=O)N[C@@H](CCCCNC(=O)COCCOCCNC(=O)COCCOCCNC(=O)CC[C@H](NC(=O)CCCCCCCCCCCCCCCCCCC(=O)O)C(=O)O)C(=O)N[C@@H](CC(C)C)C(=O)N[C@@H](CCC(=O)O)C(=O)NCC(=O)NCC(=O)N1CCC[C@H]1C(=O)N[C@@H](CO)C(=O)N[C@@H](CO)C(=O)NCC(=O)N[C@@H](C)C(=O)N1CCC[C@H]1C(=O)N1CCC[C@H]1C(=O)N1CCC[C@H]1C(=O)N[C@@H](CO)C(N)=O)C(C)C (some centres unmarked)", "system": "human, plasma", "setting": "subcutaneous, 25 mg, single dose, healthy volunteers", "measurement": "Cmax", "result": "2780 ng/mL"}
{"SMILES": "CC[C@H](C)[C@@H]1NC(=O)[C@@H](NC(=O)[C@H](CO)NC(=O)[C@@H](N)CCCNC(=N)N)CSSC[C@@H](C(=O)O)NC(=O)[C@H]([C@@H](C)O)NC(=O)CNC(=O)[C@@H]2CSSC[C@@H]3NC(=O)[C@H](CCC(N)=O)NC(=O)[C@H](Cc4ccccc4)NC(=O)[C@H](C)NC(=O)[C@H]([C@@H](C)O)NC(=O)[C@H](CSSC[C@H](NC(=O)[C@H](Cc4ccccc4)NC(=O)[C@H](CO)NC(=O)[C@H](CC(C)C)NC(=O)[C@H](CCCNC(=N)N)NC(=O)[C@H](Cc4ccc(O)cc4)NC(=O)[C@H](CCCCN)NC(=O)[C@H](CCSC)NC(=O)[C@H](CO)NC(=O)[C@H](Cc4cnc[nH]4)NC(=O)[C@H](CCCCN)NC3=O)C(=O)N[C@@H](CCCNC(=N)N)C(=O)N[C@@H](CCCCN)C(=O)N[C@@H]([C@@H](C)O)C(=O)N2)NC(=O)[C@H](CCCNC(=N)N)NC(=O)[C@H](CO)NC(=O)[C@H](CCCCN)NC(=O)[C@@H]2CCCN2C(=O)[C@H]([C@@H](C)CC)NC(=O)[C@H]([C@@H](C)O)NC(=O)[C@H](CC(=O)O)NC1=O", "test": "chemical stability", "system": "pig, simulated intestinal fluid", "measurement": "half-life", "result": "0.8 h"}
{"SMILES": "CCCCCCCCCCCCCCCC(=O)N[C@@H](CCC(=O)NCCCC[C@H](NC(=O)[C@H](CC(=O)O)NC(=O)[C@H](CO)NC(=O)[C@@H](NC(=O)[C@H](Cc1ccccc1)NC(=O)[C@@H](NC(=O)CNC(=O)[C@H](CCC(N)=O)NC(=O)[C@H](C)NC(=O)[C@@H](Cc1ccc(O)cc1)NC(C)=O)[C@@H](C)O)[C@@H](C)O)C(=O)N[C@@H](CO)C(=O)N[C@@H](CCCCN)C(=O)N[C@@H](Cc1ccc(O)cc1)C(=O)N[C@@H](CC(C)C)C(=O)N[C@@H](CC(=O)O)C(=O)N[C@@H](CCC(=O)O)C(=O)N[C@@H](CCCNC(=N)N)C(=O)N[C@@H](C)C(=O)N[C@@H](C)C(=O)N[C@@H](CCC(N)=O)C(=O)N[C@@H](CC(=O)O)C(=O)N[C@@H](Cc1ccccc1)C(=O)N[C@H](C(=O)N[C@@H](CCC(N)=O)C(=O)N[C@@H](Cc1c[nH]c2ccccc12)C(=O)N[C@@H](CC(C)C)C(=O)N[C@@H](CC(C)C)C(=O)N[C@@H](CCC(=O)O)C(=O)NCC(=O)NCC(=O)N1CCC[C@H]1C(=O)N[C@@H](CO)C(=O)N[C@@H](CO)C(=O)NCC(=O)N[C@@H](C)C(=O)N1CCC[C@H]1C(=O)N1CCC[C@H]1C(=O)N1CCC[C@H]1C(=O)N[C@@H](CO)C(N)=O)C(C)C)C(=O)O", "test": "multiple ascending dose", "system": "human", "setting": "25 to 150 µg once daily, across doses", "measurement": "median tmax at steady state", "result": "8 to 10 h"}
{"SMILES": "CCc1ccccc1NC(=S)N/N=C/c1ccc(O)cc1O", "target or system": "L929", "test": "MTT", "setting": "25 µM, 24 h", "measurement": "viability", "result": "80%"}
{"note": "Repeated from above:"}
{"SMILES": "CCCCCCCCCCCCCCCC(=O)N[C@@H](CCC(=O)NCCOCCOCCC(=O)NCCOCCOCCC(=O)NCCCC[C@H](NC(=O)[C@H](CC(=O)O)NC(=O)[C@H](CC(C)C)NC(=O)[C@H](Cc1ccc(O)cc1)NC(=O)[C@H](CCCCN)NC(=O)[C@H](CO)NC(=O)[C@H](Cc1ccc(O)cc1)NC(=O)[C@H](CC(=O)O)NC(=O)[C@H](CO)NC(=O)[C@@H](NC(=O)[C@H](Cc1ccccc1)NC(=O)[C@@H](NC(=O)CNC(=O)[C@H](CCC(N)=O)NC(=O)[C@@H](CO)NC(=O)[C@@H](N)Cc1c[nH]cn1)[C@@H](C)O)[C@@H](C)O)C(=O)N[C@@H](CCCNC(=N)N)C(=O)N[C@@H](CCCNC(=N)N)C(=O)N[C@@H](C)C(=O)N[C@@H](CCC(N)=O)C(=O)N[C@@H](CC(=O)O)C(=O)N[C@@H](Cc1ccccc1)C(=O)N[C@H](C(=O)N[C@@H](CCC(N)=O)C(=O)N[C@@H](Cc1c[nH]c2ccccc12)C(=O)N[C@@H](CC(C)C)C(=O)N[C@@H](CC(C)C)C(=O)N[C@@H](CC(N)=O)C(=O)N[C@H](C(=O)NCC(=O)NCC(=O)N1CCC[C@H]1C(=O)N[C@@H](CO)C(=O)N[C@@H](CO)C(=O)NCC(=O)N[C@@H](C)C(=O)N1CCC[C@H]1C(=O)N1CCC[C@H]1C(=O)N1CCC[C@H]1C(=O)N[C@@H](CO)C(N)=O)[C@@H](C)O)C(C)C)C(=O)O", "system": "rhesus monkey, female", "setting": "subcutaneous, 300 µg/kg once daily, 28 days", "measurement": "total bilirubin", "result": "4.7 ± 1.7 µmol/L"}
